Results from different studies.
Every numbered part comes from another study and shows a few of its results, in no order. Changes are numbered by the printed parent chain.

Series 1 — method: protein-binding microarray; form: double-stranded DNA, one strand shown; medium: in vitro; concentration: 2200 nM top; notes: 60-bp whole probe; added: salmon DNA 0.4 mg/ml; reference: random background probes; direction: higher = stronger binding; measurement: fitted relative affinity; all sequences stand within: GCCTAGCAC … GTCTTGATTCGCTTGACGCTGCTG
Target: Interferon regulatory factor 7, full length, phosphomimetic (IRF7, Homo sapiens, UniProt Q92985, residues 1-503, S471D/S472D/S475D/S476D/S477D/S483D/S484D/S487D)
Target sequence (chain): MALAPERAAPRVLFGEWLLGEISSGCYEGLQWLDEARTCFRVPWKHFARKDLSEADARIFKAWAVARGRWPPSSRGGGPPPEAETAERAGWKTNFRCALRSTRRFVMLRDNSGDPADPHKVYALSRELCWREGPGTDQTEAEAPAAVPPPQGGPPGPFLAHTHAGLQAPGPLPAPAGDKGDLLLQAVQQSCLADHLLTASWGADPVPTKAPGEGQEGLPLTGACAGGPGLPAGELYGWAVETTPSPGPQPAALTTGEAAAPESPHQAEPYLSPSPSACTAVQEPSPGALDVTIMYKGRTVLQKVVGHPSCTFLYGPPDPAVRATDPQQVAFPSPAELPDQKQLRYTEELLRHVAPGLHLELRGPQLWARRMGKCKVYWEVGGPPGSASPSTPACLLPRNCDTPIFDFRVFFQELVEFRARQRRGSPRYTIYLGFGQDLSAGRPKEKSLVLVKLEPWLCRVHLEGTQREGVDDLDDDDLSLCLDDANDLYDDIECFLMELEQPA
GGAGTTTTCTCATTCGTCATGTGCTAG: 2.19 z-score
GGGTCTCTGGGTCGGGCAGGGTGCTAG: -0.54 z-score
TCATTTTTCCCTCTGGAACTGTGCTAG: 2.55 z-score
TCAGGCCTCTTGCTCAGACTGTGCTAG: -0.233 z-score
AAGCAAGGTGGAGAAGAGAAGTGCTAG: -1.46 z-score
TTGTAGATGCCTTTCTCTTGGTGCTAG: 1.17 z-score
GACGGACTGCTACAGCTGACGTGCTAG: -0.0647 z-score
GACGAGATCAGTCTCGAGACGTGCTAG: 0.227 z-score
TCCATTATTGCTTCCTCTTTGTGCTAG: 2.77 z-score
GACGCTTTCAGACTGGAGACGTGCTAG: 1.21 z-score
TCAGGTCTCGGTTTCGGTTAGTGCTAG: 7.12 z-score
TCATACCTCATCTTCCTCACTGTGCTA: 2.12 z-score
GACGGACTGGGGTTTCGAGACGTGCTA: 0.495 z-score
GACGGTTTCGACTTTAGGGACGTGCTA: 5.07 z-score
CAGCTTCTAATATTCATTTTGTGCTAG: 1.18 z-score
TTGGGTATCGGACTGGGTTAGTGCTAG: 0.166 z-score
GACGCTCTCCTACTGCTGACGTGCTAG: 1.19 z-score
GACGATCTCAGTCTCGAGATGTGCTAG: 0.26 z-score
GACGGTTTTGACTATCGGGACGTGCTA: 0.786 z-score
TTAGGTCTCGTTCTCGGTTAGTGCTAG: 1.54 z-score
TTAGATTCCGGTTTCGATTAGTGCTAG: 7.03 z-score
GACGAACTGATTCTCGAGACGTGCTAG: 0.26 z-score
GACGGTAGCGGGACTGGGGACGTGCTA: -0.957 z-score
TCAGCCATCAATATCTGACTGTGCTAG: 0.33 z-score
TTAGGTTTCGGATCCGGTTAGTGCTAG: 5.91 z-score

Series 2 — method: RNA Bind-n-Seq; form: RNA; medium: in vitro; concentration: 365 nM; reference: no-protein control; direction: higher = stronger binding; measurement: RBNS enrichment (R)
Target: RNA binding protein fox-1 homolog 2, RRM domain, GST-SBP tag (RBFOX2, Homo sapiens, UniProt O43251-10, residues 100-194)
Notes: natural RNA segment, single round, ends assumed
All sequences stand within: GGGAGUUCUACAGUCCGACGAUC … UGGAAUUCUCGGGUGCCAA
Construct (chain): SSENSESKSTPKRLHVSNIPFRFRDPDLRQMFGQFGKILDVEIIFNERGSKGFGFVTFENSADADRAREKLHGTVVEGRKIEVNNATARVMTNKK
CAAUUUUAAACAUGUAAAAUGGAUAUAUAAUUUGCCAAAGGUAAUUAAUUUAUUCUUUUUUUCUUAAAGAAGAAAAAGACAUUGGUUGUUGUUACAAAAAGUCUAAAUUA: 0.618
UGGCCCGGUGAUGAAGGCUUUCUACUCCUUAACAGGUACAGUUGGAUCCAUCGCUGAUGGUGUUUCUUUAGCCCCAUCCCAAUUGGCCUAAAACAUUUGUCACCAGAACA: 0.39
CAGAGGGCGACUGUACCAAGGCCACACCAGCUGACCAGCACACCUCUAUCCUUUUGAGCUCUUCUGUCUUUUUAUAGUAAGCUUCCUCCACCUGUGUUGCUUUUGUAACU: 0.522
AGUGUCCUUCAGGAAUGAAAGGAGGGGCAAAGGAGUCACCAGAGGUCCUGCAUUUCCAUCAGGGUUUCCACAGUCAUCAGGGCUUCUCUCUUGAGUUGCUGAUAGGAGAU: 4.95
CUUUAAAUUAUAUUUAACAUUUUCAUGCUUCUUAAUUUAACUUCACAUGUUGGGAAGUAGAUUCAGAAAGAUAGGAGAAAUACCCAGACUCUACCACUUCCGUGAGCUAC: 0.397
AGAAUUCAAUAUCAGUUUAGUAGCAACAGUACAGUUGCCAUUUAAAUUGGUUUAGUUGCUGUAUAUCACCAUAGCCCCUGUUUACGUCAAACCUGUGUCUCGCUCUAUAU: 0.242
GGCUGAGUCCAGCUGUUCUUUAAGAACAGCAGUUUCAGCUCUGACCAUUCUGAUUCCAGUGACACUUGUCAGGAGUCAGAGCCUUGUCUGUUAGACUGGACAGCUUGUGG: 10.2
AUUUUUUUUUAAAUAUAUUUGAUGACAUAAUUUUUGUGUAGUUUAUUUAUCUUGUACAUAUGUAUUUUGAAAUCUUUUAAACCUGAAAAAUAAAUAGUCAUUUAAUGUUG: 0.581
UCAGGCAACAGGACAGCCAUCUCUCUGCUUCAGCCCUCUGCCUACAGGGAUUAGGGAAAUGGAGCUCUGGCUUUGAAGUUAUUUGUGAGUUUAGCAACCUUCCAGUUACC: 0.5
UAUUGUCACUCAGCCAACAACUUUUCCACACCUGGGGGUUGGUGGCUGUUCUUACUGUCCAAAUGAAGCUAAAAAGAAAGGCAUCUUUCUUCCCUUUUAAAAUUGUGUAA: 0.234
CUUAUCUGUUCCCUUCCUGGUUUCCAAAGAAGCCCUCUGUGAACAUCAUCAAAGCAUGGGUACCCCCAUCUGCAAGGGAUGGGCUUCAUCCUCCGCUAGUCCCUGUGUCC: 0.339
AUUUUUUUGAAUGACUACAGUAUGGACAAUUUCAAAAACCAAAACCCACUUUGGAUUGGUGGAAGUAAAAACUGGUAACUCACUCAAGUGAAUGAAUGGUCUUGCAUUUU: 0.529

Series 3 — method: RNA Bind-n-Seq; form: RNA; medium: in vitro; concentration: 1 µM; notes: whole 134-nt RNA, ends assumed; added: 150 mM KCl; reference: input library; direction: higher = stronger binding; measurement: log2 enrichment
Target: Ras GTPase-activating protein-binding protein 1, RRM domain (G3BP1, Homo sapiens, UniProt Q13283)
UniProt Q13283, sequence (whole entry, looked up): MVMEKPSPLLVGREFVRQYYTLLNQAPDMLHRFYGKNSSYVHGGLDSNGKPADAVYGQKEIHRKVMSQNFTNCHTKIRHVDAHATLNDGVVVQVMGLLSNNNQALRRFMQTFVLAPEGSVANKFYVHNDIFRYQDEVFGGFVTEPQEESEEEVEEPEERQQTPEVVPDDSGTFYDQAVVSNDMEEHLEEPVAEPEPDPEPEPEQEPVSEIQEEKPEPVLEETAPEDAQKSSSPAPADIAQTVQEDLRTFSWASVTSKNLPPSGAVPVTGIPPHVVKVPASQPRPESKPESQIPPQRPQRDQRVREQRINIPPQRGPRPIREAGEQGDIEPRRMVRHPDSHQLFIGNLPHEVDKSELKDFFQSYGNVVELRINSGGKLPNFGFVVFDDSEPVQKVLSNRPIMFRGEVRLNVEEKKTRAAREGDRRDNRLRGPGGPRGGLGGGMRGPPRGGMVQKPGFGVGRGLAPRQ
All sequences stand within: GGGAGUUCUACAGUCCGACGAUC … UGGAAUUCUCGGGUGUCAAGG
AAGUCCUGUGCUACACAUCGUAUGUACCGAAUCGGGAAAAAGGGAAAGGGAAAGGGAAAGUAUUAUGUUACGCCGUUCGGAUCUGCACUU: 0.403
UCAAGUCCUGUGCUACACAUCGUAUGUACCGAAUCGGGUUUGGUUUGGGUUUGGAAAGUAUUAUGUUACGCCGUUCGGAUCUGCACUUCC: -0.319
ACCAUGCAGGUGGGCAUCUUUGGGAAGUAGGGCAAGGGGGGGAUAGGGAGGGGGGUAACACUUUGGGAACAGGUGGUCCCAGGUCGUUUC: -0.346
UUUGAAGGUGAUUUCUGGCCCAAUGUGUUAGAAGAGAGCAUUAAGGAACUAGAACAAGAAGAAGAGGAGAGGAAAAAGGAAGAGAGCACU: -0.0885
AGUCCUGUGCUACACAUCGUAUGUACCGAAUCGGGGCCCCGGGGCCCCGGCCCCGGGGAAAGUAUUAUGUUACGCCGUUCGGAUCUGCAC: -1.28
UCUGAGCAAUUGAAUGCCCUAAACAAGGCUUACCAUGACCUUUGUGAUGGUUCUGCAAAUCAGCUUCAGCAGCUUCAGAGCCAGUUGGCU: -0.396
CUGUGCUACACAUCGUAUGUACCGAAUCGGGGUUUUUGGGGUUUUUUUGGGGUUUUUGGGGAAAGUAUUAUGUUACGCCGUUCGGAUCUG: 0.819
CCUCAAGUCCUGUGCUACACAUCGUAUGUACCGAAUCGGGGUGGGUGGUGGGGAAAGUAUUAUGUUACGCCGUUCGGAUCUGCACUUCCA: 0.124
AAGUCCUGUGCUACACAUCGUAUGUACCGAAUCGGGCCCCGGGGCCCCGGCCCCGGGAAAGUAUUAUGUUACGCCGUUCGGAUCUGCACU: -0.817
CAAGUCCUGUGCUACACAUCGUAUGUACCGAAUCGGAAAAAAAGGUUUGGUUUGGAAAGUAUUAUGUUACGCCGUUCGGAUCUGCACUUC: -0.281
CCUCAAGUCCUGUGCUACACAUCGUAUGUACCGAAUCGGGGUUGGUUGGUUGGAAAGUAUUAUGUUACGCCGUUCGGAUCUGCACUUCCA: -0.239
GUCCUGUGCUACACAUCGUAUGUACCGAAUCGGGAAAAAAAGGGUUUGGGAAAAAGGGAAAGUAUUAUGUUACGCCGUUCGGAUCUGCAC: 0.115
GUCCUGUGCUACACAUCGUAUGUACCGAAUCGGGGAAAAAGGAAAAAGGGAAAAAGGGGAAAGUAUUAUGUUACGCCGUUCGGAUCUGCA: 0.0504
UGGGAGGUGGAUUUUGUUUAUUUUUUUAGCUCAUUUCCAGGGGUGGGAAUUUUUUUUUAAUAUGUGUCAUGAAUAAAGUUGUCUUUGAAA: 2.07

Series 4 — target: CCNA2, cyclin fold, Cln2 fusion (human); method: yeast growth competition, sequencing; medium: yeast; notes: strong parent motif; reference: not given; direction: higher = stronger binding; measurement: normalised enrichment score
Starting sequence: RB1 docking peptide (human); PKPLKKLRFDIEG
PKPLKKLNFDIEG [R8N]: 2.17
PKPMKKLRFDIEG [L4M]: 2.02
PKPAKKLRFDIEG [L4A]: 2.52
KKPLKKLRFDIEG [P1K]: 1.5
PKPLKKLRPDIEG [F9P]: -0.283
PKPLKKLRFDTEG [I11T]: 0.118
PKPLKKLRFDAEG [I11A]: 1.74
PKPLKKLRFDIAG [E12A]: 0.226
PKPLKKNRFDIEG [L7N]: 1.07
PKPYKKLRFDIEG [L4Y]: 2.37
PKPLKSLRFDIEG [K6S]: 1.26
PKNLKKLRFDIEG [P3N]: 0.348
PKPLKKSRFDIEG [L7S]: 1.32
PKPLKKLRFDSEG [I11S]: 1.82
PKYLKKLRFDIEG [P3Y]: 0.568
PKPLKKLRFSIEG [D10S]: 1.09
PKPLKKLMFDIEG [R8M]: 1.36
PKPLKKLRFNIEG [D10N]: 1.54
PKVLKKLRFDIEG [P3V]: 0.567
PKPLKKLGFDIEG [R8G]: 0.458
PKPLKKCRFDIEG [L7C]: 0.815
VKPLKKLRFDIEG [P1V]: 0.824
PWPLKKLRFDIEG [K2W]: 0.902
PKSLKKLRFDIEG [P3S]: 1.91
NKPLKKLRFDIEG [P1N]: 1.19

Repeated from above (series 4):
PKPLKKCRFDIEG [L7C]: 0.815
PKYLKKLRFDIEG [P3Y]: 0.568
PKPLKKLRFDTEG [I11T]: 0.118
PWPLKKLRFDIEG [K2W]: 0.902
PKPMKKLRFDIEG [L4M]: 2.02
PKNLKKLRFDIEG [P3N]: 0.348
PKSLKKLRFDIEG [P3S]: 1.91
PKPLKKLRFNIEG [D10N]: 1.54
PKPAKKLRFDIEG [L4A]: 2.52
PKPLKSLRFDIEG [K6S]: 1.26
